Published values gathered from unrelated publications.
Every numbered part comes from another study and shows a few of its results, in no order.
UniProt Q9BQI3, sequence (whole entry, looked up): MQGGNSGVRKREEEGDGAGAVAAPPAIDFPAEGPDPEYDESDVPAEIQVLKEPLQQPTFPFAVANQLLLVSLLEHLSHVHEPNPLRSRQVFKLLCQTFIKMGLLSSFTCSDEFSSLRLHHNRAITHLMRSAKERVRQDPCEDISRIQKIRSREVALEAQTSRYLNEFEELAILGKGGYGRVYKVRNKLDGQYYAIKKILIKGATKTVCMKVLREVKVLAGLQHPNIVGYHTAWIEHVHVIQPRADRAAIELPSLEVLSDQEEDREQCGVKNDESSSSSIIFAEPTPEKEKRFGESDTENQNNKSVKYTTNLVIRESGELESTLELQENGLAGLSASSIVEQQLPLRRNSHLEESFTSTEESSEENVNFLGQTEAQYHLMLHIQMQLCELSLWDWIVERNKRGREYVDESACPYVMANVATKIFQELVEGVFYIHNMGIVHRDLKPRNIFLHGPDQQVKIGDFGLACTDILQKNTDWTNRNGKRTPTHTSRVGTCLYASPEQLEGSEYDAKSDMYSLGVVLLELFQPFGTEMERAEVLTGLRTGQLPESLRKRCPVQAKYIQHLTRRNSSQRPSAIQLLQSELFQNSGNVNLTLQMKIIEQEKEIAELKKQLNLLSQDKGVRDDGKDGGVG
UniProt P49336, sequence (whole entry, looked up): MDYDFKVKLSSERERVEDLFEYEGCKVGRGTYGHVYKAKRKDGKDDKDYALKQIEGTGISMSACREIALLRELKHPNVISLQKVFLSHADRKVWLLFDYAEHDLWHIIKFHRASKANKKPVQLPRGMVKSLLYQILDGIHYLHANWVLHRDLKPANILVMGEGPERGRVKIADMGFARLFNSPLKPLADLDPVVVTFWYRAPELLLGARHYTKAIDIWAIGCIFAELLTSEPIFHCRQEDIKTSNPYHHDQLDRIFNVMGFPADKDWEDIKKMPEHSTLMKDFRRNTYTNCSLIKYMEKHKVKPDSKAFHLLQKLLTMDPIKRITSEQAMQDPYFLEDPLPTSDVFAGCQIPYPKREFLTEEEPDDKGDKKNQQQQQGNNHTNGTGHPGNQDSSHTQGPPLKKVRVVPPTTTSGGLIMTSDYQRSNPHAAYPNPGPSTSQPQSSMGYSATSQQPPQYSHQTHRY
UniProt Q12866, sequence (whole entry, looked up): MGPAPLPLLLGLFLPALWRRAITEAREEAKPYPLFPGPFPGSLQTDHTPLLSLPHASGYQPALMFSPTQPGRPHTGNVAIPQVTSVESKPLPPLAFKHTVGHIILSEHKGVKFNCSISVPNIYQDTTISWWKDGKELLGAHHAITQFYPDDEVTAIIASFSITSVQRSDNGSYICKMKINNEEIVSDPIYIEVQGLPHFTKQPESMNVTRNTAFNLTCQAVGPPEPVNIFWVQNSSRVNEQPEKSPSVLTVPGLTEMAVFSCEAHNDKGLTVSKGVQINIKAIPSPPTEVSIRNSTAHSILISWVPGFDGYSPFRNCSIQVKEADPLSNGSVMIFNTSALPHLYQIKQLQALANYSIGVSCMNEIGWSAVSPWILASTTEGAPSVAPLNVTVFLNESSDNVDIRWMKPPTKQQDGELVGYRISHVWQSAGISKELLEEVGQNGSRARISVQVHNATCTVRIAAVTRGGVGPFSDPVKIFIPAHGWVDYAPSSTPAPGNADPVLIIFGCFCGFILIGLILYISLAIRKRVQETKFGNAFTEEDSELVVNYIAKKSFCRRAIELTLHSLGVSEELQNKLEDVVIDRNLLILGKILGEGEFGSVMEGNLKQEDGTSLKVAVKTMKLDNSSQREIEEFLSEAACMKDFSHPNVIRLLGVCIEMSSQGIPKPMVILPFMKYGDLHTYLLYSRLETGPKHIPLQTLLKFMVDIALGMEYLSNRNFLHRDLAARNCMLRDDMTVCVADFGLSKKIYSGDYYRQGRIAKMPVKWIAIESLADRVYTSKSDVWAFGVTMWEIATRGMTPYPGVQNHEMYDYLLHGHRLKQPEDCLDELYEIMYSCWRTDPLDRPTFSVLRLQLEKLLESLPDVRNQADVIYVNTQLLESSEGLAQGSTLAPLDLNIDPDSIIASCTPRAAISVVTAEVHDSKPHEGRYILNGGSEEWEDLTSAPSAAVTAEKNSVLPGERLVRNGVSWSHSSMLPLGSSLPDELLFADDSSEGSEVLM
UniProt Q9NRM7, sequence (whole entry, looked up): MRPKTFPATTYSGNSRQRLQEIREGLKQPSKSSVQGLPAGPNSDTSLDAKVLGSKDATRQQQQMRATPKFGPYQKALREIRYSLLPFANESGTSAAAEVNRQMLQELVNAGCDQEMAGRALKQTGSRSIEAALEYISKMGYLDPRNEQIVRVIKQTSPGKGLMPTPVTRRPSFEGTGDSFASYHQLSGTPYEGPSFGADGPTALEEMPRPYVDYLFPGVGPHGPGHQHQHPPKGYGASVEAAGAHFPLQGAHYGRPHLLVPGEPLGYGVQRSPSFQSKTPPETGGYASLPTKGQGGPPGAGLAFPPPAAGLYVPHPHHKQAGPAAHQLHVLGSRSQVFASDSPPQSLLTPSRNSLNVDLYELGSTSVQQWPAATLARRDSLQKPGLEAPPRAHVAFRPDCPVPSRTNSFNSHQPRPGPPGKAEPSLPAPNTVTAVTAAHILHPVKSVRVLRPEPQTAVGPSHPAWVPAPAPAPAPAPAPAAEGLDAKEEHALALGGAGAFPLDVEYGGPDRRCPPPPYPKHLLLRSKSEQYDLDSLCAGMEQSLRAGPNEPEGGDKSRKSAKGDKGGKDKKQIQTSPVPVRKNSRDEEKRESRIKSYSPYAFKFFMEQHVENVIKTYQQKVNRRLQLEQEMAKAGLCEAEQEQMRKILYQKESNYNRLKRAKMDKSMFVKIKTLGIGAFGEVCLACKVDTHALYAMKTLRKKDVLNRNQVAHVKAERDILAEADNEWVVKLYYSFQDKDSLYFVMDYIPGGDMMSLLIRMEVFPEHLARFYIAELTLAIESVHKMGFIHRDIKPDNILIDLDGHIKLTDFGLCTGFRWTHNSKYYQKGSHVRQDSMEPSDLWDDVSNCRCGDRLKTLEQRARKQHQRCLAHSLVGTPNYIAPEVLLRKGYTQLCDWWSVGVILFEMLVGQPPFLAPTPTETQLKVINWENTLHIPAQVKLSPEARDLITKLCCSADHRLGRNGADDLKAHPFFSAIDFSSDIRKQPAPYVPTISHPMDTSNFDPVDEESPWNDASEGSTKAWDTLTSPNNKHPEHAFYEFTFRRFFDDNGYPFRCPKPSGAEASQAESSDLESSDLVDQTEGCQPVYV
UniProt Q13237, sequence (whole entry, looked up): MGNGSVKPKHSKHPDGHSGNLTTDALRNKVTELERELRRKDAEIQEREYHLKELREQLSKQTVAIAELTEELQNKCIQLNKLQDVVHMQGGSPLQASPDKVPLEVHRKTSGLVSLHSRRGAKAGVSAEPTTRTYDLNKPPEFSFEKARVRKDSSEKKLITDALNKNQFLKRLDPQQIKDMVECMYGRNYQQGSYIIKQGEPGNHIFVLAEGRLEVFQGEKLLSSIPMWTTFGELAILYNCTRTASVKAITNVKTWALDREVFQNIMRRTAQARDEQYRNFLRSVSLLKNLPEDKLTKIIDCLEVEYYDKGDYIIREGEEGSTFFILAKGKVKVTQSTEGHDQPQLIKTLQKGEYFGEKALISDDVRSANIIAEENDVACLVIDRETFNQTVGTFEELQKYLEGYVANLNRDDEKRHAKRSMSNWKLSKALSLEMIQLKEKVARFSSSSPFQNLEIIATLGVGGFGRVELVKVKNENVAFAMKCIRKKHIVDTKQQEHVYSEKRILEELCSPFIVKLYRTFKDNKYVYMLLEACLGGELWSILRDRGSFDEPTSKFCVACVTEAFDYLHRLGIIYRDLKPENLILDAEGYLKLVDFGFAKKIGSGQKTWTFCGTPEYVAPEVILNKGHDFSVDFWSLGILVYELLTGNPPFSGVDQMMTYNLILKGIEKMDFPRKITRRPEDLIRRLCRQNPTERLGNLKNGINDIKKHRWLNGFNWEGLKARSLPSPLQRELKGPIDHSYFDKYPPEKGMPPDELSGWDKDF

Set 1 — observed: cell-free assay; method: competition with immobilised ligand; concentration: 1 µM; quantity: remaining binding
SMILES: CO[C@@H](C)c1c(Nc2ccc([C@@H](N(C)C(=O)C3CCS(=O)(=O)CC3)C(F)(F)F)cc2)cnc2cc(Cl)nn12
MAP3K15 (Homo sapiens, UniProt Q6ZN16): 100%
Tyrosine-protein kinase JAK3, JH1 (JAK3, Homo sapiens, UniProt P52333): 98%
PTK2 (Homo sapiens, UniProt Q05397): 90%
PIP4K2C (Homo sapiens, UniProt Q8TBX8): 58%
CDK8 (Homo sapiens, UniProt P49336): 96%
MAP4K1 (Homo sapiens, UniProt Q92918): 100%
Non-receptor tyrosine-protein kinase TYK2, JH2 (TYK2, Homo sapiens, UniProt P29597): 100%
ITK (Homo sapiens, UniProt Q08881): 94%
NEK10 (Homo sapiens, UniProt Q6ZWH5): 100%
MINK1 (Homo sapiens, UniProt Q8N4C8): 100%
Aurora kinase C (AURKC, Homo sapiens, UniProt Q9UQB9): 85%
LATS2 (Homo sapiens, UniProt Q9NRM7): 88%
PRKG2 (Homo sapiens, UniProt Q13237): 100%
EIF2AK1 (Homo sapiens, UniProt Q9BQI3): 100%
FLT3 (Homo sapiens, UniProt P36888, D835V/ITD): 59%
MERTK (Homo sapiens, UniProt Q12866): 79%

Set 2 — cell line: A-375; concentration: 100 µM; time: 36 h; quantity: viability
CCN(CCO)CCCC(C)Nc1ccnc2cc(Cl)ccc12 (stereo not drawn): -0.73%
C=CCN1CCCC1CNC(=O)c1cc2[nH]nnc2cc1OC (stereo not drawn): 114%
NC(=O)c1ccccc1O: 106%
CCCC(=O)O[C@]1(C(=O)CO)CC[C@H]2[C@@H]3CCC4=CC(=O)CC[C@]4(C)[C@H]3[C@@H](O)C[C@@]21C: 106%
CC1(C)S[C@@H]2[C@H](NC(=O)[C@H](N)c3ccccc3)C(=O)N2[C@H]1C(=O)OCOC(=O)[C@@H]1N2C(=O)C[C@H]2S(=O)(=O)C1(C)C: 68.4%
C=CC[N+]1([C@H]2C[C@H]3[C@@H]4CC[C@H]5C[C@H](O)[C@@H](N6CCOCC6)C[C@]5(C)[C@H]4CC[C@]3(C)[C@H]2OC(C)=O)CCCC1: 52.2%
CC(=O)c1ccc(S(=O)(=O)NC(=O)NC2CCCCC2)cc1: 111%
CC1(C)O[C@@H]2C[C@H]3[C@@H]4CCC5=CC(=O)C=C[C@]5(C)[C@@]4(F)[C@@H](O)C[C@]3(C)[C@]2(C(=O)CO)O1: 93.8%
CCCCC(=O)O[C@]1(C(=O)CO)CC[C@H]2[C@@H]3CCC4=CC(=O)CC[C@]4(C)[C@H]3[C@@H](O)C[C@@]21C: 56.2%
CCOc1cc(CC(=O)N[C@@H](CC(C)C)c2ccccc2N2CCCCC2)ccc1C(=O)O: 48.2%
CCN(CCCCOC(=O)c1ccc(OC)c(OC)c1)C(C)Cc1ccc(OC)cc1 (stereo not drawn): 56.4%
CC(=O)c1ccc2c(c1)N(CCCN1CCC(CCO)CC1)c1ccccc1S2: 1.41%

Set 3 — observed: enzyme activity; action: inhibitor; concentration: 0.5 µM; baseline: control; quantity: remaining activity
Target: Tyrosine-protein kinase Tec (TEC, Homo sapiens, UniProt P42680)
UniProt P42680, sequence (whole entry, looked up): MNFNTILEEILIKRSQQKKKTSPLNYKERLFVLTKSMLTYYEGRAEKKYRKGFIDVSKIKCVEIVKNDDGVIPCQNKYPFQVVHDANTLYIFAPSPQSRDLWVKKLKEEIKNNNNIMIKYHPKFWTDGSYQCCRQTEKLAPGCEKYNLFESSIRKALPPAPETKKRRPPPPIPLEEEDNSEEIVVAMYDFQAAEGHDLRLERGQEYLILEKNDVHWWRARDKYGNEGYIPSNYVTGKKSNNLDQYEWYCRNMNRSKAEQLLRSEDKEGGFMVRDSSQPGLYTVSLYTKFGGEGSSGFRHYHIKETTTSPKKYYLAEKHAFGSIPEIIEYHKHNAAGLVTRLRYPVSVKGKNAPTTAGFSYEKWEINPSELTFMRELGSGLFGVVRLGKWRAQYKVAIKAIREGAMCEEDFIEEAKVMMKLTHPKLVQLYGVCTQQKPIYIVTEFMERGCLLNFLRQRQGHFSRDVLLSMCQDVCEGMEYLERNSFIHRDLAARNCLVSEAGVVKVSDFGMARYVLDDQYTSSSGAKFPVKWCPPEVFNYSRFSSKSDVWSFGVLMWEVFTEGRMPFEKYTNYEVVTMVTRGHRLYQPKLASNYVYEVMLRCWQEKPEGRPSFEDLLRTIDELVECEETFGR
O=C1c2ccccc2-c2n[nH]c3cccc1c23: 102%
CCOc1nc(NC(=O)Cc2cc(OC)ccc2OC)cc(N)c1C#N: 99.2%
COc1cc2ncnc(Nc3ccc(O)c(Br)c3)c2cc1OC: 108%
Cc1cc2ncc(-c3ccccc3)nc2cc1C: 98.1%
C[C@@H]1CCN(C(=O)CC#N)C[C@@H]1N(C)c1ncnc2[nH]ccc12: 95.4%
CCN(CC)CCNC(=O)c1c(C)[nH]c(/C=C2\C(=O)Nc3ccc(Cl)cc32)c1C: 102%
c1ccc(-c2[nH]ncc2-c2ccnc3ccccc23)nc1: 106%
COc1cc2ncnc(Nc3cccc(Cl)c3)c2cc1OC: 126%
CCN(CC)C(=O)c1ccc(Nc2nc(OCC3CCCCC3)c3[nH]cnc3n2)cc1: 63%
COc1cc2c(cc1OC)-c1[nH]nc(Nc3cccc(F)c3)c1C2: 95%
O=C(NC(NC(=S)Nc1ccc(F)c([N+](=O)[O-])c1)C(Cl)(Cl)Cl)C(c1ccccc1)c1ccccc1 (stereo not drawn): 201%
Nc1cccc(-c2cc3c(Oc4cccc(O)c4)ncnc3[nH]2)c1: 108%
N#Cc1c(NC(=O)c2cccc3ccccc23)sc2c1CCCC2: 111%
Cn1nc2c3c(cccc31)C(=O)c1ccccc1-2: 102%
CN([C@@H](Cc1ccc(OS(=O)(=O)c2cccc3cnccc23)cc1)C(=O)N1CCN(c2ccccc2)CC1)S(=O)(=O)c1cccc2cnccc12: 98.9%
Cc1nc2cc3nc(-c4cccs4)cnc3cc2n1C: 158%
O=C(Nc1cccc(Nc2nccc(Nc3cccc(C(F)(F)F)c3)n2)c1)C1CC1: 158%
O=C1C(Cl)=C(N2C(=O)CCC2=O)C(=O)c2ccccc21: 101%
Ic1cccc(CSc2nnc(-c3ccncc3)o2)c1: 106%
c1ccc(-c2cnc(Nc3ccc(OCCN4CCCC4)cc3)s2)cc1: 106%
CCN(CC)CCNC(=O)c1c(C)[nH]c(/C=C2\C(=O)Nc3ccc(F)cc32)c1C: 94.8%
N#C/C(=C\c1ccc(O)c(O)c1)C(=O)NCc1ccccc1: 123%
Cc1cn(-c2cc(NC(=O)c3ccc(C)c(Nc4nccc(-c5cccnc5)n4)c3)cc(C(F)(F)F)c2)cn1: 88.2%
CN(C)C[C@H]1CCn2c(c(C3=C(c4cn(C)c5ccccc45)C(=O)NC3=O)c3ccccc32)C1: 108%
O=c1cc(-c2cccc3c2Sc2ccccc2S3)oc(N2CCOCC2)c1: 198%

Set 4 — observed: enzyme activity; action: inhibitor; concentration: 10 µM; quantity: inhibition
Target: Calcium/calmodulin-dependent protein kinase type II subunit alpha (CAMK2A, Homo sapiens, UniProt Q9UQM7)
UniProt Q9UQM7, sequence (whole entry, looked up): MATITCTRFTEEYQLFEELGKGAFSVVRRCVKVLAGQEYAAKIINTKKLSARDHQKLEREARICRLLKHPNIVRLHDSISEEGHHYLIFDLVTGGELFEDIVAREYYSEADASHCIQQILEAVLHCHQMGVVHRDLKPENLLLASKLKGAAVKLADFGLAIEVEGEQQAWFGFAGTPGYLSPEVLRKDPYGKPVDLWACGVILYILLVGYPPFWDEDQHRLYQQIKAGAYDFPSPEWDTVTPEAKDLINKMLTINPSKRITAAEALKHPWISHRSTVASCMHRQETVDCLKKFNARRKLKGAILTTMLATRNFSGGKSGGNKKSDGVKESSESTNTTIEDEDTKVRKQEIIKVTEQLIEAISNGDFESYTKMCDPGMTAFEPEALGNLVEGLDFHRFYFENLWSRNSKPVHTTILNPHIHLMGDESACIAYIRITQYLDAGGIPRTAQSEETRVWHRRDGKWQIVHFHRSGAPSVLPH
O=C(O)C1=C(CSc2nnnn2CS(=O)(=O)O)CS[C@@H]2[C@H](NC(=O)[C@H](O)c3ccccc3)C(=O)N12: -6%
CC(=O)O[C@H]1C[C@@]2(C)[C@@H](C[C@H]1O)C(=O)C=C1[C@@H]2CC[C@]2(C)[C@@H]([C@@](C)(O)[C@H](O)CCC(C)(C)O)CC[C@@]12O: -14%
CCc1cc(C(N)=S)ccn1: -5%
CCCCCCCCCCCCCC(=O)O[C@H](CC(=O)[O-])C[N+](C)(C)C: 17%
CCCCCCCCCCCCCCCCCCCCC(=O)O: -72%
CC(C)(Sc1cc(C(C)(C)C)c(O)c(C(C)(C)C)c1)Sc1cc(C(C)(C)C)c(O)c(C(C)(C)C)c1: -1%
c1cc2c(cc1O[C@H]1OC[C@H]3[C@@H]1CO[C@@H]3c1ccc3c(c1)OCO3)OCO2: 34%
Cc1cc(O)cc(C)c1O: -23%
C[C@@H](c1ccc2nccn2c1)n1nnc2ncc(-c3cnn(C)c3)nc21: -1%
CCCCCc1ccco1: 16%
CC1(C)[C@H](C(=O)O)CC[C@]1(C)C(=O)O: -32%
O=C(CCCN1CCC(O)(c2ccc(Br)cc2)CC1)c1ccc(F)cc1: -7%
CC(C)(C)NC[C@H](O)COc1cccc2c1CCCC2=O: -6%
Oc1cc(O)c2c(c1)O[C@H](c1ccc(O)c(O)c1)[C@H](O)[C@H]2c1c(O)cc(O)c2c1O[C@H](c1ccc(O)c(O)c1)[C@H](O)[C@H]2c1c(O)cc(O)c2c1O[C@H](c1ccc(O)c(O)c1)[C@H](O)C2: 5%
C=Cc1c(C)c2cc3nc(c(CC(=O)N[C@@H](CC(=O)O)C(=O)O)c4[nH]c(cc5nc(cc1[nH]2)C(C)=C5CC)c(C)c4C(=O)O)[C@@H](CCC(=O)O)[C@@H]3C: -2%
C[C@@H]1CC(=O)c2c(ccc3c2C(=O)c2cccc(O)c2C3=O)C1: 7%
